{"data": "Published values collected from several papers", "note": "Numbered parts are unrelated; each lists some results of a single study. Changes are numbered by the printed parent chain."}
{"data": "Sample 1", "target": "Prothrombin, mature alpha-thrombin (F2, Homo sapiens, UniProt P00734)", "technique": "aptamer microarray, sandwich", "molecule type": "DNA with 2'F-ANA", "matrix": "in vitro", "tested at": "200 nM", "notes": "whole 15-mer aptamer, many near background", "together with": "Cy3 exosite-II aptamer, 400 nM", "direction": "higher = stronger binding", "sequence": "GGTTGGTGTGGTTGG"}
{"Modification": "2'F-ANA at 2 3 5 7 12 13", "mean fluorescence intensity": "165 a.u."}
{"Modification": "2'F-ANA at 1 2 6 7 8 10 12 15", "mean fluorescence intensity": "65.6 a.u."}
{"Modification": "2'F-ANA at 2 3 4 5 6 8 10 12 13", "mean fluorescence intensity": "53.1 a.u."}
{"Modification": "2'F-ANA at 3 4 6 7 9 10 13 15", "mean fluorescence intensity": "193 a.u."}
{"Modification": "2'F-ANA at 1 3 4 7 8 10 12 13 14 15", "mean fluorescence intensity": "76.7 a.u."}
{"Modification": "2'F-ANA at 1 2 3 6 7 10 11 14", "mean fluorescence intensity": "48.9 a.u."}
{"Modification": "2'F-ANA at 1 4 7 8 10 11 14 15", "mean fluorescence intensity": "309 a.u."}
{"Modification": "2'F-ANA at 1 3 4 5 6 7 9 10 12 15", "mean fluorescence intensity": "51.9 a.u."}
{"Modification": "2'F-ANA at 1 2 4 7 8 13 14", "mean fluorescence intensity": "56.4 a.u."}
{"Modification": "2'F-ANA at 3 8 11 13", "mean fluorescence intensity": "951 a.u."}
{"Modification": "2'F-ANA at 2 4 5 6 7 9 10 11 13", "mean fluorescence intensity": "102 a.u."}
{"Modification": "2'F-ANA at 1 4 6 11 12 14 15", "mean fluorescence intensity": "74.9 a.u."}
{"Modification": "2'F-ANA at 2 4 5 8 10 12 13 14 15", "mean fluorescence intensity": "49.9 a.u."}
{"Modification": "2'F-ANA at 1 3 5 6 9 11 12 13 14 15", "mean fluorescence intensity": "80.2 a.u."}
{"Modification": "2'F-ANA at 1 4 5 8 11 13 15", "mean fluorescence intensity": "48.8 a.u."}
{"Modification": "2'F-ANA at 1 3 4 8 12", "mean fluorescence intensity": "486 a.u."}
{"Modification": "2'F-ANA at 2 4 7 8 9 10 12 13 14 15", "mean fluorescence intensity": "64.6 a.u."}
{"Modification": "2'F-ANA at 3 4 5 6 9 13 14 15", "mean fluorescence intensity": "50.2 a.u."}
{"Modification": "2'F-ANA at 1 3 4 5 6 9 10 11 12 13 14", "mean fluorescence intensity": "68.5 a.u."}
{"Modification": "2'F-ANA at 1 4 6 7 9 12 14", "mean fluorescence intensity": "55.1 a.u."}
{"Modification": "2'F-ANA at 2 3 4 5 6 8 10 12 14", "mean fluorescence intensity": "51 a.u."}
{"Modification": "2'F-ANA at 3 4 5 9 10 11 12 14", "mean fluorescence intensity": "53.6 a.u."}
{"data": "Sample 2", "target": "Cln2 (Saccharomyces cerevisiae)", "observed": "peptide binding", "technique": "competitive growth sequencing", "molecule type": "peptide", "organism": "Saccharomyces cerevisiae", "strain": "unfused Cln2 strain", "notes": "peptide tiling library", "direction": "direction not given"}
{"Sequence": "NNIRKALSFDNRGEEH", "enrichment score": -0.637}
{"Sequence": "TTTTSPRTPPPLTVQD", "enrichment score": 1.33}
{"Sequence": "KVKRRLDLDIDGLQKE", "enrichment score": -1.05}
{"Sequence": "PPKPLKKLRFDIEGSD", "enrichment score": 0.213}
{"Sequence": "DWDTVERQEEEAPSWD", "enrichment score": 0.914}
{"Sequence": "GFGFLLFICKLTF", "enrichment score": -0.0624}
{"Sequence": "ARKRLELGNLGNPQ", "enrichment score": -0.401}
{"Sequence": "GAEELEDLVHFSVSEL", "enrichment score": 1.25}
{"Sequence": "RRVLCFDS", "enrichment score": -0.877}
{"Sequence": "PQWPCGKHKRVLIFAS", "enrichment score": -0.911}
{"Sequence": "PPTFLSTGEIHAFLSS", "enrichment score": -0.628}
{"Sequence": "LRRKLFLDGNGSIS", "enrichment score": -1.29}
{"Sequence": "LRRQLSFSED", "enrichment score": 0.52}
{"Sequence": "SCCKRKLVVGNGPEGP", "enrichment score": -0.503}
{"Sequence": "RKLDLEGIGR", "enrichment score": -0.99}
{"Sequence": "RKLHFEDEVT", "enrichment score": 0.34}
{"Sequence": "VSRNLRSSLKSSLHTL", "enrichment score": -1.92}
{"Sequence": "NFETPEAETPIRSPFK", "enrichment score": 0.677}
{"data": "Sample 3", "target": "TAR DNA-binding protein 43, full length, His tag (TARDBP, Homo sapiens, UniProt Q13148, residues 1-414)", "technique": "RNA Bind-n-Seq", "molecule type": "RNA", "matrix": "in vitro", "tested at": "20 nM", "notes": "6-mer, flanks averaged, single round", "together with": "150 mM LiCl", "relative to": "input library", "direction": "higher = stronger binding"}
{"Sequence": "UGGUGA", "6-mer enrichment (R)": 1.22}
{"Sequence": "AAGUAC", "6-mer enrichment (R)": 0.831}
{"Sequence": "AGGCAC", "6-mer enrichment (R)": 0.911}
{"Sequence": "CGAUUG", "6-mer enrichment (R)": 0.897}
{"Sequence": "GCUAUA", "6-mer enrichment (R)": 0.908}
{"Sequence": "UUCACG", "6-mer enrichment (R)": 0.856}
{"Sequence": "GGUGUU", "6-mer enrichment (R)": 1.44}
{"Sequence": "AAAAGG", "6-mer enrichment (R)": 0.893}
{"Sequence": "UAACUG", "6-mer enrichment (R)": 0.88}
{"Sequence": "AGCUAA", "6-mer enrichment (R)": 0.844}
{"data": "Sample 4", "target": "ABI1, truncated, D143A, DHFR fusion (Arabidopsis thaliana)", "technique": "DHFR PCA, deep sequencing", "matrix": "yeast", "notes": "methotrexate growth selection, single substitutions", "together with": "(+)-ABA 58 µM", "relative to": "wild-type fitted maximum", "direction": "higher = stronger binding", "parent": "PYL1, truncated, DHFR fusion (Arabidopsis thaliana); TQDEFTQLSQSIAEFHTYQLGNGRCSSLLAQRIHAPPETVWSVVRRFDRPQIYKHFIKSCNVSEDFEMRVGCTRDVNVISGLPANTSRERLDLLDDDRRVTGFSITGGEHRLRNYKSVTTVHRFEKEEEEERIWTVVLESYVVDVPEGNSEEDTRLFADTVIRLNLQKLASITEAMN"}
{"Variant": "K54G", "relative binding score [%]": -5.61}
{"Variant": "E151L", "relative binding score [%]": 78}
{"Variant": "Q19L", "relative binding score [%]": 76.1}
{"Variant": "D153S", "relative binding score [%]": 31.7}
{"Variant": "N149L", "relative binding score [%]": 25.4}
{"Variant": "D144C", "relative binding score [%]": 43}
{"Variant": "I133V", "relative binding score [%]": 95.3}
{"Variant": "S26M", "relative binding score [%]": 82}
{"Variant": "A30N", "relative binding score [%]": 63.3}
{"Variant": "C72N", "relative binding score [%]": 73.9}
{"Variant": "D75W", "relative binding score [%]": 80.3}
{"Variant": "T135A", "relative binding score [%]": 67.1}
{"Variant": "E129T", "relative binding score [%]": 94.9}
{"Variant": "L91V", "relative binding score [%]": -2.49}
{"Variant": "D75Q", "relative binding score [%]": 85.8}
{"note": "Excerpt of the above (sample 2):"}
{"Sequence": "NNIRKALSFDNRGEEH", "enrichment score": -0.637}
{"Sequence": "TTTTSPRTPPPLTVQD", "enrichment score": 1.33}
{"Sequence": "KVKRRLDLDIDGLQKE", "enrichment score": -1.05}
{"Sequence": "PPKPLKKLRFDIEGSD", "enrichment score": 0.213}
{"Sequence": "DWDTVERQEEEAPSWD", "enrichment score": 0.914}
{"Sequence": "GFGFLLFICKLTF", "enrichment score": -0.0624}
{"Sequence": "ARKRLELGNLGNPQ", "enrichment score": -0.401}
{"Sequence": "GAEELEDLVHFSVSEL", "enrichment score": 1.25}
{"Sequence": "RRVLCFDS", "enrichment score": -0.877}
{"Sequence": "PQWPCGKHKRVLIFAS", "enrichment score": -0.911}
{"Sequence": "PPTFLSTGEIHAFLSS", "enrichment score": -0.628}
